Measurements from different studies.
Every numbered part comes from another study and shows a few of its results, in no order.

Series 1 — method: protein binding microarray; form: double-stranded DNA, one strand shown; matrix: in vitro; concentration: not given; reference: not given; direction: higher = stronger binding
Target: Histone acetyltransferase KAT6A, both winged helices, GST fusion (KAT6A, Homo sapiens, UniProt Q92794, residues 1-181)
Notes: 8-mer, flanks averaged, mean of 2 arrays, mostly near background
Construct (chain): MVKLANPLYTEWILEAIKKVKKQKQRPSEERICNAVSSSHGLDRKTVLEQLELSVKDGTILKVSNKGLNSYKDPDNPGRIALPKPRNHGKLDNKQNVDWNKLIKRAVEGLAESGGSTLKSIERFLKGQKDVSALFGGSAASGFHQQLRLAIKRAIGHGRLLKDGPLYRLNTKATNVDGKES
| Strand | E-score |
| --- | --- |
| CTAGACCA | -0.156 |
| AGCAACCA | -0.228 |
| CCGAGATA | -0.0133 |
| CTCATCCA | -0.196 |

Series 2 — method: competition protein-binding microarray; form: double-stranded DNA, one strand shown; matrix: in vitro; concentration: 2 µM; with: Pho4 competitor, 0.05 µM; direction: higher = stronger binding; all sequences stand within: … GTCTTGATTCGCTTGACGCTGCTG
Target: Centromere-binding protein 1, full length, His-tagged (CBF1, Saccharomyces cerevisiae, UniProt P17106, residues 1-351)
Chain of UniProt P17106 (whole entry, looked up): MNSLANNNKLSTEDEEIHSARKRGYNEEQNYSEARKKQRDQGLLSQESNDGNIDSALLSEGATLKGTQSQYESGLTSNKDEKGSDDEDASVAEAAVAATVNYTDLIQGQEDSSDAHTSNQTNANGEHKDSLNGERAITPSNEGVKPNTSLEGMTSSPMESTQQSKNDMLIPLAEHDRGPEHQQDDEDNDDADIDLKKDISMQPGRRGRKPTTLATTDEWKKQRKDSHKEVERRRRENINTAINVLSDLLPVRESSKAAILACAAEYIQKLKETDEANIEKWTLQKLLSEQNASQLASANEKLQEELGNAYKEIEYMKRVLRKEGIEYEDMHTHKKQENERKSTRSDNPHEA
Notes: whole 60-bp probe, lowest competitor level
| Strand | fluorescence intensity |
| --- | --- |
| TGAGTTAAGTGTAGGCATGTGACTCACTTCTGGTAA | 1320 a.u. |
| CATTTGAAGGTTCGGCACGTGCTTTACCCCAAAGGT | 2110 a.u. |
| AACTGTGAATGGGGATGCGTGACGGGTTCGTCTCTG | 95.8 a.u. |
| CAATAAATCTTGTTCCTCGTGGCCGAATGGTTACGG | 95.6 a.u. |
| GTCTTGTCTCATTGAATCGTGGGTGTCCCCACTTCA | 80.1 a.u. |
| CTTCTGTAAATTTGTGTAGTGGGTGGACGCGCCCCG | 105 a.u. |

Series 3 — method: RNA Bind-n-Seq; form: RNA; matrix: in vitro; concentration: 20 nM; notes: 6-mer, flanks averaged, single round; with: 150 mM KCl; reference: input library; direction: higher = stronger binding
Target: TAR DNA-binding protein 43, full length, His tag (TARDBP, Homo sapiens, UniProt Q13148, residues 1-414)
| Strand | 6-mer enrichment (R) |
| --- | --- |
| GGAAGG | 4.36 |
| AAGAGC | 0.84 |
| AUAAGG | 1.04 |
| AAGGGU | 1.91 |

Single results of other studies
| Molecule | target | assay | test system | conditions | how to read | quantity | result |
| --- | --- | --- | --- | --- | --- | --- | --- |
| PhoQ, residues 284 288 289 292 302 303 ALAMYF | PhoP, residues 12 14 15 18 19 VQGLL (Escherichia coli, UniProt P23836) | Sort-seq, item: YFP reporter | E. coli | PhoQ-PhoP variant library, with: 10 µM Mg2+ | reference: high Mg2+ state, higher = stronger signaling | fold induction | 4.5 |

Repeated from above (series 3):
| Strand | 6-mer enrichment (R) |
| --- | --- |
| AAGAGC | 0.84 |
| AUAAGG | 1.04 |
